Experimental data from different studies.
Lines come from different studies, so protocols differ. Values joined by “and” are separate records of one study, mostly repeats; a detail may differ. ± gives the spread as reported.
Chain of UniProt Q96PY6 (whole entry, looked up): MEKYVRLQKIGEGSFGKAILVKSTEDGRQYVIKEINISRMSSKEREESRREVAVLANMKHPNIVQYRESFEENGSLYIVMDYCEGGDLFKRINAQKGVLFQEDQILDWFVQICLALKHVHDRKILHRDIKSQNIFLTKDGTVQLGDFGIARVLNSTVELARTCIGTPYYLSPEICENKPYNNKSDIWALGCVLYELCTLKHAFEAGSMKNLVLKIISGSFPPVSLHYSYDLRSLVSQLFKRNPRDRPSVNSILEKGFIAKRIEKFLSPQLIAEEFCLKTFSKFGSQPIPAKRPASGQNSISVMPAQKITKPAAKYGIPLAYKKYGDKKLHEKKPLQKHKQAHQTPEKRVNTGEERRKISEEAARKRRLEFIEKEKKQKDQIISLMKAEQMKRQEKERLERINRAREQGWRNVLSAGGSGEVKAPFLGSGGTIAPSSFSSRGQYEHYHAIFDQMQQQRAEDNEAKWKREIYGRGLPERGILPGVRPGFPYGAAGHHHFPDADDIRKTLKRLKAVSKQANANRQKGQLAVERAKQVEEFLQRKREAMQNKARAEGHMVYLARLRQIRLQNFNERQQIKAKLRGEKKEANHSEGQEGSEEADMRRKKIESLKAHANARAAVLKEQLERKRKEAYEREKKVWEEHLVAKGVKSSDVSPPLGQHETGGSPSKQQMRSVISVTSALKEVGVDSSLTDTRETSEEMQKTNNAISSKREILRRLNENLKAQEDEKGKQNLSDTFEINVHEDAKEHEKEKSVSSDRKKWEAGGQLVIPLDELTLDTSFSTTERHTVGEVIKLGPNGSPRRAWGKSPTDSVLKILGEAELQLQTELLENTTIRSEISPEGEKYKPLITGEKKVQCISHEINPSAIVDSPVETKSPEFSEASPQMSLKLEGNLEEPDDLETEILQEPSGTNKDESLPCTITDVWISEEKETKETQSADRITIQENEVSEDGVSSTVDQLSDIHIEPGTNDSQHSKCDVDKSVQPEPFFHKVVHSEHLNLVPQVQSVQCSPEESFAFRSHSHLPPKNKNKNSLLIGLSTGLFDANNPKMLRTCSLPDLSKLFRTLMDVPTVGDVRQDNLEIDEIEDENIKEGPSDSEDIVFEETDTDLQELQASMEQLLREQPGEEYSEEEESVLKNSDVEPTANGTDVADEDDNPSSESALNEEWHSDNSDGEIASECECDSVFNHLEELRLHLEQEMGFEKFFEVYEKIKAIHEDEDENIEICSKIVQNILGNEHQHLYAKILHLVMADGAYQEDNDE

SMILES | target or system | assay | test system | setting | scale | measurement | result
COc1ccccc1-c1n[nH]c2nc(N[C@H]3CC[C@H](NS(=O)(=O)CC(C)C)CC3)ncc12 | – | bead binding, competition bead pull-down, measured: LINJ.30.3560 | Leishmania donovani extract | 10 µM | baseline: vehicle | relative abundance | 1.16
CNC(=S)N/N=C/c1ccc(OCc2ccccc2)cc1 | IMR-32 | – | – | 50 µg/mL, 24 h | higher = more activity | catalase activity (OD450) | 0.021 a.u.
O=C(C[Se]C(=O)c1ccco1)Nc1cccc(C(F)(F)F)c1 | NCI60 melanoma subpanel | cell growth | – | 10 µM, 48 h, one-dose | – | mean growth percent | -33.1%
CC(=O)NCSC[C@H](NC(=O)[C@@H]1CCCN1C(=O)[C@H](C)NC(=O)[C@@H](NC(=O)CNC(=O)[C@@H](NC(=O)[C@H](Cc1c[nH]c2ccccc12)NC(=O)[C@H](C)NC(=O)CNC(=O)[C@H](CO)NC(=O)[C@H](C)NC(=O)[C@@H]1CCCN1C(=O)[C@H](Cc1c[nH]c2ccccc12)NC(=O)[C@H](C)NC(=O)[C@H](C)NC(=O)[C@@H](N)Cc1ccc(O)cc1)[C@@H](C)O)[C@@H](C)O)C(=O)N[C@@H](CO)C(=O)N[C@@H](C)C(=O)NCC(=O)N[C@H](C(=O)NCCOCCOCCOCCOCCOCCOCCOCCOCCOCCOCCOCCOCCC(=O)N[C@@H](CS)C(N)=O)[C@@H](C)O | PC-3 prostate cancer | phage binding | – | – | baseline: targeting over control phage | selectivity ratio | 12 ± 2.4
CC(C)(C)C(=O)OCOP(=O)(OCOC(=O)C(C)(C)C)C1CCCN(O)C1=O (stereo not drawn) | HOP-92 | – | – | – | – | TGI | 51.5 µM
CC[C@H](C)[C@H](NC(=O)[C@H](C)NC(=O)CNC(=O)[C@H](Cc1ccccc1)NC(=O)[C@H](CC(N)=O)NC(=O)[C@H](CC(N)=O)NC(=O)[C@H](CO[C@@H]1O[C@H](CO)[C@@H](O)[C@H](O)[C@H]1NC(C)=O)NC(=O)[C@H](CO)NC(=O)[C@H](Cc1c[nH]cn1)NC(=O)[C@@H](NC(=O)[C@H](CC(C)C)NC(=O)[C@H](Cc1ccccc1)NC(=O)[C@H](CC(N)=O)NC(=O)[C@H](C)NC(=O)[C@@H](N)CC(C)C)C(C)C)C(=O)N[C@@H](CC(C)C)C(N)=O | INS-1 | MTT | – | 2 equivalents to hIAPP, 24 h, added: hIAPP 1 µM | – | viability | 69.7% and 70.3%
CN(C)[C@H]1C[C@@]23CC[C@@]4(O2)C(=CC[C@]2(C)[C@@H](c5ccc6ccncc6c5)CC[C@H]24)C=C3[C@@H](O)[C@@H]1O | NEK1 (Homo sapiens, UniProt Q96PY6) | ATP probe labelling, inhibitor, KiNativ profiling | – | 0.1 µM | – | inhibition | 8.7%
CSCC[C@H](NC(=O)[C@@H](NC(=O)[C@H](CCC(N)=O)NC(=O)[C@H](CO)NC(=O)[C@@H](N)C(C)C)[C@@H](C)O)C(=O)N[C@@H](CCCNC(=N)N)C(=O)N[C@@H](CCC(N)=O)C(=O)N[C@H](C(=O)N[C@@H](C)C(=O)N[C@H](C(=O)N1CCC[C@H]1C(=O)N[C@@H](CC(C)C)C(=O)N[C@@H](CC(C)C)C(=O)N[C@@H](Cc1c[nH]c2ccccc12)C(=O)N[C@@H](Cc1ccccc1)C(=O)N[C@@H](Cc1c[nH]c2ccccc12)C(=O)N[C@H](C(=O)NCC(=O)N[C@@H](CO)C(=O)N[C@@H](CC(C)C)C(=O)NCCOCCOCCOCCOCCOCCOCCOCCOCCOCCOCCOCCOCCC(=O)N[C@@H](CS)C(N)=O)[C@@H](C)O)C(C)C)[C@@H](C)O | PC-3 prostate cancer | phage binding | – | – | baseline: targeting over control phage | selectivity ratio | 4.2 ± 1.6
COc1ccccc1-c1n[nH]c2nc(NC3CCN(C(=O)Cc4ccc(F)cc4F)CC3)ncc12 | – | bead binding, competition bead pull-down, measured: LINJ.36.2130 | Leishmania donovani extract | 10 µM | baseline: vehicle | relative abundance | 0.9
C[C@H]1O[C@@H]2C3=C(O[C@]2(C)[C@@]1(O)C=O)C(=O)c1c(O)cccc1C3=O | A549 and Vero | MTT | – | – | baseline: CC50 Vero over EC50 A549 | selectivity index | 1.97
O=C1NC2(CC2)COc2ncc(F)cc2[C@H]2COCCN2c2ccn3ncc1c3n2 | – | – | Sprague-Dawley rat, male, serum | oral, 20 mg/kg/day, end of treatment, 4-week subacute toxicity | – | serum triglycerides | 0.39 ± 0.07 mmol/L
CC1CCC2C(C)C(OC(=O)CCC(=O)N3CCC(Nc4ccc(S(=O)(=O)NC(=O)c5ccc(N6CCN(CC7=C(c8ccc(Cl)cc8)CC(C)(C)CC7)CC6)cc5Oc5cnc6[nH]ccc6c5)cc4[N+](=O)[O-])CC3)OC3OC4(C)CCC1C32OO4 (stereo not drawn) | THP-1 | annexin V/PI flow cytometry, measured: annexin V-/PI+ | – | 0.8 µM, 24 h | – | necrotic cells | 0.8%
Cc1cc(C(=O)Nc2nc3cccc(C)c3n2[C@H]2CCCCN(C(=O)/C=C/CN(C)C)C2)ccn1 | Trypanosoma brucei | – | STIB795, mouse acute HAT model | oral, 7.5 mg/kg once daily for 4 days, day 6 | baseline: mice | survival | 66.7%
O=C(C[Se]C(=O)c1cccnc1Nc1cccc(C(F)(F)F)c1)Nc1cccc(C(F)(F)F)c1 | NCI60 melanoma subpanel | cytotoxicity, inhibitor | – | five-dose | – | CC50 | 6.85 µM
COc1ccccc1-c1ccncc1C(=O)Nc1nnc(OCc2ccc(Cl)cc2)s1 | DLD-1 BRCA2-/- | – | – | 0.06 µM, single replicate | baseline: untreated | colony survival | 84.5% and 101% and 94%
